Measurements from different studies.
Every numbered part comes from another study and shows a few of its results, in no order.

Set 1
Target: RNA binding protein fox-1 homolog 2, RRM domain, GST-SBP tag (RBFOX2, Homo sapiens, UniProt O43251-10, residues 100-194)
Method: RNA Bind-n-Seq
Form: RNA
Medium: in vitro
Concentration: 365 nM
Setting: natural RNA segment, single round, ends assumed
Reference: no-protein control
Direction: higher = stronger binding
Target sequence (chain): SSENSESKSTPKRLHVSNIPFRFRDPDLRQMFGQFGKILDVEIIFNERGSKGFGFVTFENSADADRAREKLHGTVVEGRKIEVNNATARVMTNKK
| Oligonucleotide | RBNS enrichment (R) |
| --- | --- |
| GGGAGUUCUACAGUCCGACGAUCUGUCAAUCACGCCUGUCCUCUCACGCCCACACCAAGUGCCCAAAGUGGGGAGGGACAAGAGAUUCUGGAAAGUGAGCCUCCCCAUACCCUCUUUUGUUCUCCCCACCCUGUGGAAUUCUCGGGUGCCAA | 0.441 |
| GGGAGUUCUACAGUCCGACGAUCAUGGCUAAAUGCUGAAGGUGGAGGUUCAGCAUGUCUGACAACCCGGAUGUACACCGUAGAAGUGCCAUUCAGUUGUACACACAUCUUUCCUCCUCCACAUCAUCCCCACGUGGAAUUCUCGGGUGCCAA | 0.313 |
| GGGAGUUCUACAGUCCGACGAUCAUUUUUGUUUCUAAAGUGAUUUGUGAUUUGUGCUGUAUAAACUGUAUAAAAGGUUCUGUUUUUAAAGGUGGAUUUUCAUUCCUCUGGGGACAGUGGUCGCCAAGACAUCUUGGAAUUCUCGGGUGCCAA | 0.287 |
| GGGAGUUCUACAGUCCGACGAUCAGAGCAAAAAAACCCAAACACGAUAAACCUUUCAAAAGACUUUCUAAGGAUGAUAUUGGAAUGCACCAGCCCUCACAUGUGUAUGCACAUUUGCCAGAAUAUAAGAGUUUUGGAAUUCUCGGGUGCCAA | 0.904 |
| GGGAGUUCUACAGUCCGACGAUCGGCCUGAAAAUAUUUGUGAUCCAUAACUCUACACAGCCUUUACUCAUACUAUUAGGCACACUUUCCCCUUAGAGCCCCCUAAGUUUUUCCCAGACGAAUCUUUAUAAUUUUGGAAUUCUCGGGUGCCAA | 0.62 |
| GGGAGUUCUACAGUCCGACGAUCAUGGAAGGCUACUAGGAGCCACUACACUAACCUUUCUUCAUGCAUAAAUCCAAUGAGUACUACCCCACCCAUCUUGAUGAAUAUCAAUAUCUUCAGGACUGCAAUCAUUCUGGAAUUCUCGGGUGCCAA | 0.385 |
| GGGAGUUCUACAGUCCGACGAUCAACCGUUUUACACUGGAUGUUUCUCAUGUAGAACAAGAAAUCUUUCUGGAAUUGAUGUUUACAUGUCUGUUGUUGGUCAUCUCUCCUGUGUCUUAAAUACUUUAAUGUUGUGGAAUUCUCGGGUGCCAA | 0.579 |
| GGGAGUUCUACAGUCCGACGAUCAGCAGAUGGGUGAGCUGCACCAAAGUACCUGAGCAGUUAGGCCCCAGGUCCCCACCUGACCACCUGUGAACUGGCCAUCAUCAGGCUCCCAGUUUCUCCUGUACAAAUCCUGGAAUUCUCGGGUGCCAA | 0.294 |
| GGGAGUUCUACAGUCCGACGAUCAGAAAAGGUAGUGGCCGAGCUGGUAUGGGCACAGACAGAUUGCUUUGUUCUUUCAUUUCUCCCAGCACUCACUUUCUGCCUGAGUCCGGUCCAAGGACUUUUACUUUGCGUGGAAUUCUCGGGUGCCAA | 1.1 |
| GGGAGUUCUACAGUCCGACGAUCCUGCUAAGUAGGGUGGACUGGGCAAAGCAAUGAACUUUCAGGCAUUCGAGCUACUUCAUCUGCAUAAGGAAAUCCUCAAUGUAGGUGAGUCAGGUCUGUUCCCCAACUGAUGGAAUUCUCGGGUGCCAA | 0.266 |
| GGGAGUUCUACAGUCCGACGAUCCCAGUUGGAUUACAGGAAUACUUGAAAGUUACUUUCUACCACUAUUAGAAAAUAUGAAGUCGCAUGCACUGGAUAUCUAUAUAUCAUUAGGUUUUUGUUGUGUUUUUGGUUGGAAUUCUCGGGUGCCAA | 13.2 |
| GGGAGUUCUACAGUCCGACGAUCAUUUUUACAUCUAACAAAGUAAAAAAAUUAAAAAGAGGGUAAGAAACGAUUCCGGUGGGAUGAUUUUAACAUGCAAAAUGUCCCUGGGGGUUUCUUCUUUGCUUGCUUUCUGGAAUUCUCGGGUGCCAA | 1.16 |

Set 2
Target: TAR DNA-binding protein 43, full length, His tag (TARDBP, Homo sapiens, UniProt Q13148, residues 1-414)
Method: RNA Bind-n-Seq
Form: RNA
Medium: in vitro
Concentration: 20 nM
Setting: 6-mer, flanks averaged, single round
Added: 150 mM LiCl
Reference: input library
Direction: higher = stronger binding
| Oligonucleotide | 6-mer enrichment (R) |
| --- | --- |
| GUUUCA | 0.96 |
| ACUCAA | 0.848 |
| UACCGU | 0.861 |
| AGGCGU | 1.01 |
| UUGUAA | 1.01 |
| UGUUAC | 1.01 |
| AACGUC | 0.818 |
| AGUGUG | 2.01 |
| CUCCGC | 0.93 |
| GCUGUA | 1.06 |
| GAUCAA | 0.824 |
| UUUGCG | 1.19 |
| UCUCUC | 0.895 |
| GACGGA | 0.976 |
| CUGCGU | 1.01 |
| ACUUAC | 0.854 |
| AGCUUA | 0.856 |

Set 3
Target: Histone acetyltransferase KAT6A, winged helix 2, GST fusion (KAT6A, Homo sapiens, UniProt Q92794, residues 85-181)
Method: protein binding microarray
Form: double-stranded DNA, one strand shown
Medium: in vitro
Concentration: not given
Setting: 8-mer, flanks averaged, mean of 2 arrays, mostly near background
Reference: not given
Direction: higher = stronger binding
Residues (chain): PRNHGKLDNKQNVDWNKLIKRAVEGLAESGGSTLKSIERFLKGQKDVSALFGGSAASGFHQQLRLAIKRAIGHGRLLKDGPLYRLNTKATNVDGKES
| Oligonucleotide | E-score |
| --- | --- |
| ATATTTTC | 0.0664 |
| ATCCTTGG | -0.134 |
| CGGTTAAC | -0.103 |
| ACAAATTG | -0.0806 |
| GGCAAAAA | 0.122 |
| TTGGACAA | -0.00534 |
| CCTTGGTA | 0.0695 |
| TCGAGGCA | 0.171 |
| GGGGCTAA | 0.107 |
| CCGGGTAG | 0.0447 |
| ATCAGGTC | -0.104 |
| ATGGCCAA | -0.0941 |
| GTATAAGA | -0.195 |
| CACAGGTA | -0.157 |
| CATGTTGC | 0.0208 |
| AAGAGGAG | 0.0857 |
| CACTGTGA | 0.00185 |
| CACCTGGC | 0.0731 |
| ACCATAAG | -0.179 |

Set 4
Target: Transcriptional repressor CTCF (CTCF, Homo sapiens, UniProt P49711, residues 1-727, full length assumed)
Method: protein-binding microarray
Form: double-stranded DNA, one strand shown
Medium: in vitro
Concentration: not given
Setting: k-mer, scored over probes, only values ≥0.25
Direction: higher = stronger binding
Residues (chain): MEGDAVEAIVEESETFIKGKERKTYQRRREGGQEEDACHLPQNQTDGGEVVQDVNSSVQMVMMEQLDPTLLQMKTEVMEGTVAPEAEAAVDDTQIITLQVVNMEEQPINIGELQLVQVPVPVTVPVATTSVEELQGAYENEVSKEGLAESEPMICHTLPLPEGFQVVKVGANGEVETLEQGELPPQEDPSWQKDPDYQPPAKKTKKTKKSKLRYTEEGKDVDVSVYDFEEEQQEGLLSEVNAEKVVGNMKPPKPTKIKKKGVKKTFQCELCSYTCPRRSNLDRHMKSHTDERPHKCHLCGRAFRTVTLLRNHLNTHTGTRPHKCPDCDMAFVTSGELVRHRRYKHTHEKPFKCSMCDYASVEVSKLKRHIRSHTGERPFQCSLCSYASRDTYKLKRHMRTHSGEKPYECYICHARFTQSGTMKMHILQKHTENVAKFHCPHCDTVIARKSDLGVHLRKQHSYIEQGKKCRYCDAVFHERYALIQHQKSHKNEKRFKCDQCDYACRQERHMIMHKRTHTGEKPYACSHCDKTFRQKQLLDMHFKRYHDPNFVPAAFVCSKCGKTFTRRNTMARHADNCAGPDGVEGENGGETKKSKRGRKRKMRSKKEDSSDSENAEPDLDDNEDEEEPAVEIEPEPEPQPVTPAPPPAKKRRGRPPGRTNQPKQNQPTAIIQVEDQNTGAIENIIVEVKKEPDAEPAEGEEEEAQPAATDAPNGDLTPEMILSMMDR
| Oligonucleotide | E-score |
| --- | --- |
| CGCTTATA | 0.304 |
| ACTTATAA | 0.251 |
| ATTCATAC | 0.266 |
| ACTGTTAC | 0.26 |
| ACCGCTAG | 0.306 |
| AAAATTTA | 0.259 |
| ATTCGATA | 0.268 |
| TGACATAA | 0.31 |
| ACATTACC | 0.263 |
| ACATATAG | 0.295 |
| CCCTACCG | 0.275 |
| ATTATCTC | 0.277 |
| CTGTTATA | 0.292 |
| AATTTATC | 0.289 |
| AAAACGGC | 0.345 |
| ATTGTAGA | 0.251 |
| GCGCTGCA | 0.277 |
| CGGCGCGC | 0.317 |
| ATAATTAG | 0.29 |
| CTAATAAC | 0.275 |
| AAATATTA | 0.321 |
| AAAAGCTG | 0.321 |
| CAGAAATG | 0.251 |
| AGTGCAAT | 0.344 |
| CTGCGCAC | 0.268 |

Repeated from above (set 1):
| Oligonucleotide | RBNS enrichment (R) |
| --- | --- |
| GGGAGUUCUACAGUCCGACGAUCCCAGUUGGAUUACAGGAAUACUUGAAAGUUACUUUCUACCACUAUUAGAAAAUAUGAAGUCGCAUGCACUGGAUAUCUAUAUAUCAUUAGGUUUUUGUUGUGUUUUUGGUUGGAAUUCUCGGGUGCCAA | 13.2 |
| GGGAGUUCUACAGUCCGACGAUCGGCCUGAAAAUAUUUGUGAUCCAUAACUCUACACAGCCUUUACUCAUACUAUUAGGCACACUUUCCCCUUAGAGCCCCCUAAGUUUUUCCCAGACGAAUCUUUAUAAUUUUGGAAUUCUCGGGUGCCAA | 0.62 |
| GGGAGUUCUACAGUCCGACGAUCUGUCAAUCACGCCUGUCCUCUCACGCCCACACCAAGUGCCCAAAGUGGGGAGGGACAAGAGAUUCUGGAAAGUGAGCCUCCCCAUACCCUCUUUUGUUCUCCCCACCCUGUGGAAUUCUCGGGUGCCAA | 0.441 |
| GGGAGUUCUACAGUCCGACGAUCAGCAGAUGGGUGAGCUGCACCAAAGUACCUGAGCAGUUAGGCCCCAGGUCCCCACCUGACCACCUGUGAACUGGCCAUCAUCAGGCUCCCAGUUUCUCCUGUACAAAUCCUGGAAUUCUCGGGUGCCAA | 0.294 |
| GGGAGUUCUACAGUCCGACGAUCAGAGCAAAAAAACCCAAACACGAUAAACCUUUCAAAAGACUUUCUAAGGAUGAUAUUGGAAUGCACCAGCCCUCACAUGUGUAUGCACAUUUGCCAGAAUAUAAGAGUUUUGGAAUUCUCGGGUGCCAA | 0.904 |
| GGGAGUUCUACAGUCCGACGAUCAUGGAAGGCUACUAGGAGCCACUACACUAACCUUUCUUCAUGCAUAAAUCCAAUGAGUACUACCCCACCCAUCUUGAUGAAUAUCAAUAUCUUCAGGACUGCAAUCAUUCUGGAAUUCUCGGGUGCCAA | 0.385 |
| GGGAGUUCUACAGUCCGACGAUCAACCGUUUUACACUGGAUGUUUCUCAUGUAGAACAAGAAAUCUUUCUGGAAUUGAUGUUUACAUGUCUGUUGUUGGUCAUCUCUCCUGUGUCUUAAAUACUUUAAUGUUGUGGAAUUCUCGGGUGCCAA | 0.579 |
